Experimental data pooled from the literature.
Compare with care: the assays were run in different laboratories.

`COc1ccc(C[C@@H]2NC(=O)[C@H]([C@@H](C)O)NC(=O)[C@@H]3[C@@H]4CCN3C(=O)[C@@H]3Cc5cn(c6ccc(F)cc56)CCCCCCN(Cc5ccc(cc5)CCNC(=O)[C@]5(C)CCCN5C2=O)C(=O)CCC(=O)N[C@@H](C)C(=O)N[C@H](CNC(=O)CCCCC[N+](C)(C)C)C(=O)N[C@@H](Cc2cccc(c2)CNC(=O)CO4)C(=O)N3)cc1` gave an AUC(0-inf) of 0.758 µM·h (human, plasma; oral, 40 mg single, fasted (high-fat comparison), geometric mean, added: sodium caprate 720 mg).
`Cc1ncc2n1-c1ccc(Cl)cc1C(c1ccccc1F)=NC2` gave an AUC(0-inf) of 51.5 ng·h/mL (human, plasma; oral, dose not given, single dose, geometric LS mean, added: rimegepant).
Under “AUC(0-inf) slope versus CLcr”, `CC[C@H](C)[C@H](NC(=O)[C@H](CC(C)C)NC(=O)[C@H](Cc1c[nH]c2ccccc12)NC(=O)[C@H](CCC(N)=O)NC(=O)[C@@H](NC(=O)[C@H](Cc1ccccc1)NC(=O)[C@H](C)NC(=O)[C@H](CCCCNC(=O)COCCOCCNC(=O)COCCOCCNC(=O)CC[C@H](NC(=O)CCCCCCCCCCCCCCCCCCC(=O)O)C(=O)O)NC(=O)[C@H](CCC(N)=O)NC(=O)[C@H](C)NC(=O)[C@@H](NC(=O)[C@H](CCCCN)NC(=O)[C@H](CC(=O)O)NC(=O)[C@H](CC(C)C)NC(=O)C(C)(C)NC(=O)[C@@H](NC(=O)[C@H](CO)NC(=O)[C@H](Cc1ccc(O)cc1)NC(=O)[C@H](CC(=O)O)NC(=O)[C@H](CO)NC(=O)[C@@H](NC(=O)[C@H](Cc1ccccc1)NC(=O)[C@@H](NC(=O)CNC(=O)[C@H](CCC(=O)O)NC(=O)C(C)(C)NC(=O)[C@@H](N)Cc1ccc(O)cc1)[C@@H](C)O)[C@@H](C)O)[C@@H](C)CC)[C@@H](C)CC)C(C)C)C(=O)N[C@@H](C)C(=O)NCC(=O)NCC(=O)N1CCC[C@H]1C(=O)N[C@@H](CO)C(=O)N[C@@H](CO)C(=O)NCC(=O)N[C@@H](C)C(=O)N1CCC[C@H]1C(=O)N1CCC[C@H]1C(=O)N1CCC[C@H]1C(=O)N[C@@H](CO)C(N)=O` is recorded as -136 ng.h/mL per mL/min (human; subcutaneous, 5 mg, Cockcroft-Gault creatinine clearance).
For `Cn1nc(NS(C)(=O)=O)c2c(Cl)ccc(-n3c([C@H](Cc4cc(F)cc(F)c4)NC(=O)Cn4nc(C(F)F)c5c4C(F)(F)[C@@H]4C[C@H]54)nc4nc(OCCC(F)(F)F)ccc4c3=O)c21`, “AUC(0-inf) geometric mean ratio” read 0.55 (human; oral, single dose; reference: tablet over powder in bottle).
`CC(=O)c1c(C)c2cnc(Nc3ccc(C4CCN(CCS(C)(=O)=O)CC4)cn3)nc2n(C2CCCC2)c1=O` has an AUC(0-inf) of 6140 ng·h/mL (human, dose-escalation trial, plasma; oral, 150 mg twice daily, day 21, multiple doses).
For `O=c1ccc2ncc(=O)n3c2n1C[C@H]3CN1CCC(NCc2cc3c(cn2)OCCC3)CC1`, the AUC(0-inf) was 18400 ng·h/mL (healthy human volunteers, plasma; oral, 1500 mg, arithmetic mean, alone).
With `OCc1ncc2n1-c1ccc(Cl)cc1C(c1ccccc1F)=NC2` the AUC(0-inf) was 45 ng·h/mL (human, plasma; oral, 7.5 mg of midazolam, day 19, arithmetic mean, no amenamevir).
The AUC(0-inf) decrease of `Cc1ncc2n1-c1ccc(Cl)cc1C(c1ccccc1F)=NC2` is reported as 45% (human; oral, dose not given, added: omaveloxolone; reference: substrate alone).
For `N.N.O=C([O-])C1(C(=O)[O-])CCC1.[Pt+2]`, the AUC(0-inf) was 36700 ng·h/mL (item: unbound platinum; human, plasma ultrafiltrate; intravenous, AUC 3, median, dose level -1).
The AUC(0-inf) of `C[C@]1(CO)Cc2ncn(-c3ccc(C#N)c(Cl)c3)c2C(=O)O1` is reported as 17.6 µM·h (human, plasma; 80 mg, first dose fasted).
`CNC(=O)n1ccc2cc(Oc3ccnc(NC(=O)c4ccc(C5CCN(CCO)CC5)cc4)c3)c(OCCOC)cc21` gave an AUC(0-inf) reduction of about 23% (healthy human, plasma; oral, 35 mg, added: high-fat meal; reference: fasted).

Excerpt of the above:
`COc1ccc(C[C@@H]2NC(=O)[C@H]([C@@H](C)O)NC(=O)[C@@H]3[C@@H]4CCN3C(=O)[C@@H]3Cc5cn(c6ccc(F)cc56)CCCCCCN(Cc5ccc(cc5)CCNC(=O)[C@]5(C)CCCN5C2=O)C(=O)CCC(=O)N[C@@H](C)C(=O)N[C@H](CNC(=O)CCCCC[N+](C)(C)C)C(=O)N[C@@H](Cc2cccc(c2)CNC(=O)CO4)C(=O)N3)cc1` gave an AUC(0-inf) of 0.758 µM·h (human, plasma; oral, 40 mg single, fasted (high-fat comparison), geometric mean, added: sodium caprate 720 mg).
